Values quoted from earlier work, collected from citations in different studies.
“And” joins repeats or separate records; there may be more than shown. Numbers after ± are the reported error. In brackets after ≈: the same amount, converted by molar mass.

C[C@H]1CO[C@@H]2Cn3cc(C(=O)NCc4ccc(F)cc4F)c(=O)c(O)c3C(=O)N12
AUC(0-inf) ratio (human; oral, two 5 mg tablets, second study; reference: fed over fasted): 1.04

Cc1nccn1CC1CCc2c(c3ccccc3n2C)C1=O (centres unmarked)
free Cmax (human): 93.9 nM

CCCCNC(=O)NS(=O)(=O)c1ccc(C)cc1
CLint, scaled (liver microsomes 0.5 mg/mL; 1 µM): 2.03 mL/min/kg

[11CH3]n1cc(C2=C(c3ccc(Cl)cc3Cl)C(=O)NC2=O)c2ccccc21
initial brain uptake (PET; mice): 2.5 SUV

Cn1c(Cn2ccc(C(F)(F)F)c(Oc3cc(Cl)cc(C#N)c3)c2=O)n[nH]c1=O
upper abdominal pain incidence (human; up to 48 weeks, trial; reference: subjects): 5%

CCN(CC)CCNC(=O)c1c(C)[nH]c(/C=C2\C(=O)Nc3ccc(F)cc32)c1C
solubility (FaSSIF; literature value): 10.5 µg/mL (≈ 0.0265 mM)

COCCc1ccc(OCC(O)CNC(C)C)cc1 (centres unmarked)
Cmax, mean (human, fasted; 200 mg, single dose): 105 ng/mL

Cc1nn(C)cc1S(=O)(=O)NC(=O)c1ccc(-n2ccc(OCC(C)(C)C(F)(F)F)n2)nc1N1C[C@@H](C)CC1(C)C
elimination half-life (non-pregnant cystic fibrosis patients): 27.4 h

CCC(=O)NCC[C@@H]1CCc2ccc3c(c21)CCO3
solubility (water): < 1000 µg/mL

C[Si]1(C)O[Si](C)(C)O[Si](C)(C)O[Si](C)(C)O[Si](C)(C)O1
log KAW (25 °C): 3.13

Fc1ccc([C@@H]2CCNC[C@H]2COc2ccc3c(c2)OCO3)cc1
free Cmax (plasma): 1.18 nM

CNCc1cc(-c2ccccc2F)n(S(=O)(=O)c2cccnc2)c1
Tmax (human, plasma; 30 mg multiple dose, observed clinical data): 1.5 h

CC(C)(CO)c1cc2cc(NC(=O)C3(c4ccc5c(c4)OC(F)(F)O5)CC3)c(F)cc2n1C[C@@H](O)CO
AUCtau (human, cystic fibrosis, non-pregnant; dose not given, reported mean): 89300 ng·h/mL

O=c1c(-c2ccc(O)cc2)coc2cc(O)cc(O)c12
Cmax (plasma; concentration not given, total, steady state): 810 nM

CCc1c(N(CC)C2CCOCC2)cc2oc(CN3CCCCC3)cc2c1C(=O)NCc1c(C)cc(C)[nH]c1=O
decreased white cell count incidence (patients; dose not given): 40%

CCCCOc1ccc(CC(=O)NO)cc1
solubility (water): < 1000 µg/mL

C#Cc1cccc(Nc2ncnc3cc(OCCOC)c(OCCOC)cc23)c1
free Cmax (human): 249 nM

C=CC(=O)N1CCC([C@@H]2CCNc3c(C(N)=O)c(-c4ccc(Oc5ccccc5)cc4)nn32)CC1
AUC(0-8) (human patients, plasma; oral, 160 mg twice daily, day 1): 1270 ± 579 ng·h/mL

Cc1cn([C@H]2C=C[C@@H](CO)O2)c(=O)[nH]c1=O
oral bioavailability (human; 1.33 mg/kg): > 80%

Cc1cccc(Nc2ccccc2C(=O)O)c1C
unbound Cmax (plasma; concentration not given): 8300 nM

O=c1cc(-c2ccccc2)oc2cc(O)c(O)c(O)c12
well-tolerated dose range (human; oral): 200 to 800 mg

O=C1NCCN1CCN1CCC(c2cn(-c3ccc(F)cc3)c3ccc(Cl)cc23)CC1
free Cmax (plasma): 0.787 nM

N#C[C@@]1(c2ccc3c(N)ncnn23)O[C@H](CO)[C@@H](O)[C@H]1O
half-life (dog; oral, 5 mg/kg, solution, unadjusted NCATS data): 5.76 h

COc1ccc2[nH]c([S+]([O-])Cc3ncc(C)c(OC)c3C)nc2c1 (centres unmarked)
Vd (human): 20 to 25 L

Oc1c(I)cc(Cl)c2cccnc12
solubility (water): < 1000 µg/mL

FC(F)(F)c1ccc(CNc2ccc(Cc3c[nH]c4ncc(Cl)cc34)cn2)cn1
AUC(0-24 h) (patients, plasma; oral, 600 mg once daily, day 15, mean): 107000 ng·h/mL

CC(=O)[C@]1(O)Cc2c(O)c3c(c(O)c2[C@@H](O[C@H]2C[C@H](N)[C@H](O)[C@H](C)O2)C1)C(=O)c1ccccc1C3=O
diarrhoea incidence (human; concentration not given, clinical): 73%

Cl.O=C1Cc2cc(CCN3CCN(c4nsc5ccccc45)CC3)c(Cl)cc2N1
solubility (FaSSIF; literature value): 4 µg/mL

C=CC(=O)N1CCC[C@@H](n2nc(-c3ccc(Oc4ccccc4)cc3)c3c(N)ncnc32)C1
crossover pressure (supercritical CO2): 150 to 170 bar

CC(=O)O[C@H]1C(=O)[C@@]2(C)[C@H]([C@H](OC(=O)c3ccccc3)[C@]3(O)C[C@H](OC(=O)[C@H](O)[C@@H](NC(=O)c4ccccc4)c4ccccc4)C(C)=C1C3(C)C)[C@]1(OC(C)=O)CO[C@@H]1C[C@@H]2O
grade 3 peripheral neuropathy incidence (pretreated metastatic breast cancer patients; 80 mg/m2 weekly, monotherapy): 8%

COc1ccc(NS(=O)(=O)c2ccc(N)cc2)nn1
solubility (water): < 1000 µg/mL

C#C[C@]1(O)CC[C@H]2[C@@H]3CCC4=CC(=NO)CC[C@@H]4[C@H]3CC[C@@]21CC (mixture of isomers)
Cmax, geometric mean (human, fasted; 0.25 mg norgestimate, single dose, reference formulation): 1.81 ng/mL

CC(C)n1nc(-c2ccc3oc(N)nc3c2)c2c(N)ncnc21
grade ≥3 hyperglycemia incidence (patients; dose not given, dose-expansion phase): 16%

C[Si](C)(C)O[Si](C)(C)O[Si](C)(C)O[Si](C)(C)C
log KAW (28 °C): 2.84

Cc1cc(-c2nccc3c2ccn3CC(=O)Nc2ccc(-c3cnccn3)cn2)ccn1
total plasma concentration (dog; 30 mg/kg/day, day 28): 6390 nmol/L

Nc1ccn([C@@H]2O[C@H](CO)[C@@H](O)C2(F)F)c(=O)n1
volume of distribution (human; intravenous infusion, dose not given, infusion under 70 min): 50 L/m²

CO[C@@H](C)Cn1c(=O)n(C)c2cnc3ccc(-c4cncc(C(C)(C)O)c4)cc3c21
exposure decrease (human; concentration not given, preliminary, added: enzalutamide co-administration): ~30%

Cc1cnc(N2CC3(CCOCC3)C2)c(C(=O)Nc2ccc(C(=O)N3CCc4cc(C(=O)Nc5c(C)cccc5F)sc4-c4ccccc43)cc2)c1
lung to plasma ratio (rat; dose not given; reference: lung over plasma): ~15400

O=C(c1cc(Cc2n[nH]c(=O)c3ccccc23)ccc1F)N1CCN(C(=O)C2CC2)CC1
Cmin (human; oral tablet, 100 mg twice daily, multiple dose): 316 ng/mL

CN(C)C(=O)c1cc2cnc(Nc3ccc(N4CCNCC4)cn3)nc2n1C1CCCC1
adverse event incidence (item: dyspnea; advanced solid tumour or lymphoma patients; dose not given, 3 weeks on 1 week off, any grade; reference: patients): 20.9%

COc1ccc(Cl)cc1C(=O)NCCc1ccc(S(=O)(=O)NC(=O)NC2CCCCC2)cc1
HSA binding, literature value (human serum albumin; concentration not given): 99%

NC(=O)c1ncn([C@@H]2O[C@H](CO)[C@@H](O)[C@H]2O)n1
oral bioavailability (human): 64%

COc1ccccc1OCC(O)CN1CCN(CC(=O)Nc2c(C)cccc2C)CC1 (centres unmarked)
FPD prolongation concentration (field potential duration): 3 to 30 µM

CCCN[C@H]1CCc2nc(N)sc2C1
solubility (water): < 1000 µg/mL

CCC(C)n1ncn(-c2ccc(N3CCN(c4ccc(OCC5COC(Cn6cncn6)(c6ccc(Cl)cc6Cl)O5)cc4)CC3)cc2)c1=O (centres unmarked)
unbound fraction in microsomes (liver microsomes): 0.16

COc1cc(NC(=O)CCN2CCC(OC(=O)Nc3ccccc3-c3ccccc3)CC2)c(Cl)cc1CNC[C@H](O)c1ccc(O)c2[nH]c(=O)ccc12
Clast (human, plasma; inhaled, dose not given): 0.0041 nM

c1ccc2c(c1)ccc1ccccc12
amount in tissue (zebrafish embryos, whole embryo; 206.7 ng/well, 48 hpf, single exposure): 10.6 ng/well and 11.6 ng/well

CNC(=O)c1c(C)oc2cc(Oc3ncnc4cc(OC)c(OC)cc34)ccc12
exposure change (clinical DDI study; human; dose not given, added: itraconazole, CYP3A inhibitor): no effect

Nc1ncn([C@H]2C[C@H](O)[C@@H](CO)O2)c(=O)n1
whole blood stability (human whole blood; one hour, cold bath conditions): stable

N=C(N)c1ncn([C@@H]2O[C@H](CO)[C@@H](O)[C@H]2O)n1
oral bioavailability (monkey; 10 mg/kg): 13.6%

O=C([O-])CN1CCN(CC(=O)[O-])CCN([C@H](CO)[C@H](O)CO)CCN(CC(=O)[O-])CC1.[Gd+3] (racemic)
half-life (0.1 mmol/kg): 1.78 ± 0.43 h

COc1cc2nc(N3CCN(C(=O)c4ccco4)CC3)nc(N)c2cc1OC
crossover pressure (supercritical CO2): 180 to 200 bar

Cc1cccc(C)c1OCC(=O)N[C@@H](Cc1ccccc1)[C@@H](O)C[C@H](Cc1ccccc1)NC(=O)[C@H](C(C)C)N1CCCNC1=O
terminal elimination half-life (depends on dosing frequency): 2.33 to 2.44 h

O=C1Cc2cc(CCN3CCN(c4nsc5ccccc45)CC3)c(Cl)cc2N1
free Cmax (human): 0.38 nM

CC(C)[C@H](N)C(=O)OCC(CO)OCn1cnc2c(=O)[nH]c(N)nc21 (some centres unmarked)
oral bioavailability (human; 900 mg): 32%

CN1CCC(COc2cnc(-c3cccc(Cn4nc(-c5cccc(C#N)c5)ccc4=O)c3)nc2)CC1
biliary excretion (mass balance study; human; reference: dose): 30%

C[C@@H](Oc1ccc(S(C)(=O)=O)cc1C(=O)N1C[C@@H]2C[C@]2(c2cc(C(F)(F)F)on2)C1)C(F)(F)F
absolute bioavailability (human; oral, 25 mg, tablet, fasted): 72%

CO[C@H]1/C=C/O[C@@]2(C)Oc3c(C)c(O)c4c(O)c(c(/C=N/N5CCN(C)CC5)c(O)c4c3C2=O)NC(=O)/C(C)=C\C=C\[C@H](C)[C@H](O)[C@@H](C)[C@@H](O)[C@@H](C)[C@H](OC(C)=O)[C@@H]1C
solubility (water): < 1000 µg/mL

Oc1cc(O)c2c(c1)O[C@H](c1cc(O)c(O)c(O)c1)[C@H](O)C2
Cmax (plasma; concentration not given, total, steady state): 730 nM

Some of these lines once more:
C[C@@H](Oc1ccc(S(C)(=O)=O)cc1C(=O)N1C[C@@H]2C[C@]2(c2cc(C(F)(F)F)on2)C1)C(F)(F)F
absolute bioavailability (human; oral, 25 mg, tablet, fasted): 72%

C=CC(=O)N1CCC[C@@H](n2nc(-c3ccc(Oc4ccccc4)cc3)c3c(N)ncnc32)C1
crossover pressure (supercritical CO2): 150 to 170 bar

COc1ccc(Cl)cc1C(=O)NCCc1ccc(S(=O)(=O)NC(=O)NC2CCCCC2)cc1
HSA binding, literature value (human serum albumin; concentration not given): 99%

NC(=O)c1ncn([C@@H]2O[C@H](CO)[C@@H](O)[C@H]2O)n1
oral bioavailability (human): 64%

COc1cc2nc(N3CCN(C(=O)c4ccco4)CC3)nc(N)c2cc1OC
crossover pressure (supercritical CO2): 180 to 200 bar

COc1ccc2[nH]c([S+]([O-])Cc3ncc(C)c(OC)c3C)nc2c1 (centres unmarked)
Vd (human): 20 to 25 L
